Results of several laboratories.
Values joined by “and” are separate records of one study, mostly repeats; a detail may differ. Numbers after ± are the reported error.

CO[C@@H]1[C@@H](OC(N)=O)[C@@H](O)[C@H](Oc2ccc3c(O)c(NC(=O)c4ccc(O)c(CC=C(C)C)c4)c(=O)oc3c2C)OC1(C)C — colony count (HCT-116 BRCA2-/-; 200 µM, replicate 2): 1.55
CCCCCCc1cccc(C(O)CC(CO)NC(=O)CCCCCCCCCCNC(C)=O)c1 (centres unmarked) — SM/Cer ratio (HeLa; HPLC-MS-MS lipidomics, refers to: C18 SM and ceramide; 1 µM, 24 h; reference: SM over Cer): 18 ,1
O=C(N1CCCC1)n1cc(-c2ccc(-c3ccccc3)cc2)nn1 — SILAC ratio (mouse T-cells; N-terminal labelling enrichment, refers to: TFG N-terminal peptides; 1 nM, 6 h, protein median; reference: DMSO): 1.13
Cn1ncc2cc(-c3cncc(Cl)c3N3CCC4(CCNC4=O)CC3)ccc21 — log2 fold change (LS174T; gene expression, microarray, refers to: TNFAIP2 mRNA; concentration not given, 24 h; reference: untreated cells): 2.03
CN1CCN(Cc2ccc(C(=O)Nc3ccc4c(/C=C/c5ccccn5)n[nH]c4c3)cc2)CC1 — GI50 (Ba/F3 TEL-VEGFR3; cell growth, CCK-8): 0.67 µM
Nc1nnc(-c2ccccc2O)cc1N1CC2CCC(C1)N2c1ccnc(C#CCCN2CCCCCC2)c1 — log2 fold change (SW1573; ubiquitination, di-Gly remnant proteomics, refers to: YWHAB K11 ubiquitin site; 100 nM, 30 min; reference: DMSO): -0.29
CNC(NN=Cc1ccc([N+](=O)[O-])o1)=[S+][Au-][Cl] — cell fraction ANV+/PI+ (CAKI-1; annexin V/PI flow cytometry; 15 µM, 72 h): 5 ± 0.7%
COC(=O)c1cc(NC2=NC(=O)C(=Cc3ccc(N(C)C)cc3)S2)ccc1OC(C)=O — metabolite level (MCF7; GC-MS, refers to: L-Lysine; 1 µM; reference: DMSO): -0.21 fold change
O=C(Nc1ccccc1)c1cccc([C@@H]2C[C@H]2NC2CCC2)c1 (racemic) — relative growth (SET-2; cell growth, CellTiter-Glo; 10 µM, 7 d; reference: vehicle): 80.3% and 89.9% and 74.7%
CCC(=CCc1c(O)cc2c(c1O)C(=O)CC(c1ccc(O)cc1)O2)CC (centres unmarked) — active caspase-3 level (HeLa; flow cytometry; 24 µM, 48 h; reference: DMSO): 4 fold
CC(C)C[C@H](NC(=O)[C@@H]1CCCN1C(=O)[C@H](CCCCN)NC(=O)[C@@H](N)CO)C(=O)N1CCC[C@H]1C(=O)N[C@@H](CCC(=O)O)C(=O)N[C@H](C(=O)N[C@H](C(=O)N[C@@H](CC(=O)O)C(=O)N[C@@H](CCC(=O)O)C(=O)N[C@@H](Cc1ccc(O)cc1)C(=O)NCC(=O)NCCOCCOCCOCCOCCOCCOCCOCCOCCOCCOCCOCCOCCOCCOCCOCCOCCOCCOCCOCCOCCOCCOCCOCCOCCC(=O)N[C@@H](CCCCNC(=O)CC[C@H](C(=O)O)N1CCN(CC(=O)O)CCN(CC(=O)O)CC1)C(=O)N1CCN(CCCN(C)c2ccc3nccc(C(=O)NCC(=O)N4CC(F)(F)C[C@H]4C#N)c3c2)CC1)[C@@H](C)O)C(C)C — Kd (HT-1080 expressing hFAP; binding, flow cytometry; 4 °C, apparent): 0.0139 µM
O=C(NCCCSc1ccc2c(/C=C/c3ccccn3)n[nH]c2c1)c1ccc(Cl)c(C(F)(F)F)c1 — GI50 (Ba/F3 TEL-VEGFR3; cell growth, CCK-8): 0.93 µM
CC(C)c1ccc(N(C)c2ccc3c(c2)OCC[C@H]3CNc2cnccc2C(=O)O)cc1 — IC50 (MDA-MB-436; cell growth or viability, ATP luminescence; 7 days): ≥ 10 µM
Fc1ccc(Nc2nc(NC3CCCCC3)c3ccccc3n2)cc1F — Imax (transfected HEK293 cells; β-arrestin2 recruitment, negative allosteric modulator, BRET; 30 min pre-incubation, β1AR ECL1 chimera, with: isoproterenol 1 µM; reference: isoproterenol alone): 4.5%
CN(C)c1ccc(-n2cc(COC(=O)[C@@]3(C)C=C(C(=O)OC(C)(C)C)C(=O)CC3)nn2)cc1 — pERK/ERK ratio (HeLa; quantitative western blot; concentration not given, 20 (unit not given), with: EGF): 0.0813
COc1cccc(OC)c1-c1cc(C(=O)NC2(C(=O)O)C3CC4CC(C3)CC2C4)nn1-c1ccc(C(=O)NCCNC(=O)[C@H](CCCCNC(=O)[C@H](CC(C)C)NC(=O)C2OC2C(=O)O)NC(=O)CN2CCN(CC(=O)[O-])CCN(CC(=O)[O-])CCN(CC(=O)[O-])CC2)cc1C(C)C.[177Lu+3] (mixture of isomers) — surface-bound fraction (HT-29; concentration not given, 30 min; reference: added activity): 1.32 ± 0.04%
CN(C)CCN1CCN(c2ccc3nc(-c4ccc5nc(-c6ccc(C(F)(F)F)cc6)[nH]c5c4)[nH]c3c2)CC1 — growth percent (M14; SRB; 10 µM, 48 h): 32.2%
CCN(CC)CC(=O)Nc1cccc(-n2cc(-c3ccc4ccc(-c5cn(-c6cccc(NC(=O)CN(CC)CC)c6)nn5)cc4c3)nn2)c1 — fold regulation (RCC4; PCR angiogenesis array, refers to: IFNG; 5 x IC50, 6 h, normoxia; reference: untreated): 1.06
Fc1ccc(Nc2nc(NC3CCCCC3)c3cc(Br)ccc3n2)cc1F — pIC50 (transfected HEK293 cells; β-arrestin2 recruitment, negative allosteric modulator, BRET; 30 min pre-incubation, β1AR ECL1 chimera, with: isoproterenol 1 µM): 6.5
Cc1ncsc1-c1ccc(C(C)NC(=O)C2CC(O)CN2C(=O)C(NC(=O)CCCCCCCCCCN2CCCC(Nc3ncc(Cl)c(Nc4ccccc4S(=O)(=O)C(C)C)n3)C2)C(C)(C)C)cc1 (centres unmarked) — log2 fold change (22Rv1; RNA-seq, refers to: TP73 mRNA; concentration not given; reference: DMSO): -2.29
COc1ccccc1-c1ccncc1C(=O)Nc1nnc(OCc2ccc(Cl)cc2)s1 — colony survival (PEO1 BRCA2-mutant ovarian cancer; 0.5 µM, with: olaparib 1 µM): 0%
C=CC(=O)N1[C@H](c2ccc3c(c2)OCO3)c2[nH]c3ccccc3c2C[C@@H]1C(=O)NC — neuron degeneration (rat DRG neurons; 1.111 µM, 48 h, with: vincristine 40 nM): 24.8% and 26.1%
C1=[N+]2CCCC[N+]3=Cc4ccc5[n]4[Au-]23[n]2c1ccc2-c1nc2ccccc2nc1-5.F[P-](F)(F)(F)(F)F — TGI (KM12; NCI60 five-dose screen): 4.46 -log M
NC(=O)c1ccc(-c2ccccc2Cl)c2c3c([nH]c12)CC[C@H](N)C3 — IC50 (K562; cell growth or viability): 0.0209 µM
CNS(=O)(=O)Nc1nccc(Cc2c(C)c3ccc(Oc4ncccc4F)cc3oc2=O)c1F — IC50 (Calu-3; cell viability; 7 days): 0.00283 µM
COc1cc(N2CCN(C(=O)CN)CC2)ccc1Nc1ncc(Cl)c(Nc2ccccc2P(C)(C)=O)n1 — viability (NCI-H3122; CCK-8; 10 nM, 48 h): 69%
O=C(NCc1cc(F)cc(F)c1)[C@@]1(O)CCN(c2ccc3[nH]ccc3c2)C1=O — maximal inhibition (PDX-derived liver tumour cells; colony formation, inhibitor, soft agar clonogenic; 8-13 days): 49%
COC(=O)c1cc(NC2=NC(=O)C(=Cc3ccc(C)cc3)S2)ccc1OC(C)=O — metabolite level (MCF7; GC-MS, refers to: Dl-Ornithine; 1 µM; reference: DMSO): 0.34 fold change
C=Cc1c(C)c2cc3nc(c(CC(=O)OCCOCCOCCOC)c4[nH]c(cc5nc(cc1[nH]2)C(C)=C5CC)c(C)c4C(=O)O)[C@@H](CCC(=O)OCCOCCOCCOC)[C@@H]3C — reduction of phototoxicity (OVCAR-5; MTT; 0.1 µM, with: sodium azide 2 mM; reference: compound alone): ~25%
CN1CCCNC(=O)c2cccc(c2)C(=O)NCCCN(C)CCCNc2cccc3c2C(=O)c2cccc(c2C3=O)NCCC1 — log2 fold change (SAS; RNA-Seq, refers to: CCNB1IP1 mRNA; 1 µM, 6 h; reference: untreated cells): -0.73
CCCCCCCCCCCC(=O)N[C@H](CO)C[C@@H](O)c1ccccc1 — sphingomyelin level (HeLa; CERT activity, HPLC-MS/MS lipidomics, refers to: sphingomyelin 20; 1 µM, 24 h, not cell-number normalised): 4920 pmol/sample and 4430 pmol/sample and 4250 pmol/sample
Cc1nc2c(F)cc(-c3nc(Nc4ccc(CNC(=O)CCCCCCC(=O)NO)cc4)ncc3F)cc2n1C(C)C — inhibition (OVCAR-5; cell growth or viability, CCK-8; 0.3 µM, 48 h): 98.9%

Some of these lines once more:
Cc1ncsc1-c1ccc(C(C)NC(=O)C2CC(O)CN2C(=O)C(NC(=O)CCCCCCCCCCN2CCCC(Nc3ncc(Cl)c(Nc4ccccc4S(=O)(=O)C(C)C)n3)C2)C(C)(C)C)cc1 (centres unmarked) — log2 fold change (22Rv1; RNA-seq, refers to: TP73 mRNA; concentration not given; reference: DMSO): -2.29
COc1ccccc1-c1ccncc1C(=O)Nc1nnc(OCc2ccc(Cl)cc2)s1 — colony survival (PEO1 BRCA2-mutant ovarian cancer; 0.5 µM, with: olaparib 1 µM): 0%
C=CC(=O)N1[C@H](c2ccc3c(c2)OCO3)c2[nH]c3ccccc3c2C[C@@H]1C(=O)NC — neuron degeneration (rat DRG neurons; 1.111 µM, 48 h, with: vincristine 40 nM): 24.8% and 26.1%
C1=[N+]2CCCC[N+]3=Cc4ccc5[n]4[Au-]23[n]2c1ccc2-c1nc2ccccc2nc1-5.F[P-](F)(F)(F)(F)F — TGI (KM12; NCI60 five-dose screen): 4.46 -log M
NC(=O)c1ccc(-c2ccccc2Cl)c2c3c([nH]c12)CC[C@H](N)C3 — IC50 (K562; cell growth or viability): 0.0209 µM
